Measurements of several laboratories.
Lines come from different studies, so protocols differ. Several values in a cell are separate wells, animals, samples, runs or records.
TEC: Tyrosine-protein kinase Tec (TEC, Homo sapiens, UniProt P42680)

SMILES	target	assay	system	conditions	scale	endpoint	result
C[C@H]1CN(C(=O)c2cn(-c3ccnc(N)n3)c3cc(C#CC4(O)CCCCC4)ccc23)CCN1	TEC	cell-free assay, TR-FRET		1 µM		inhibition	2%
O=C=[N][Ru-4]123([n]4c5ccc(O)cc5c5c6c(c7cc(F)c[n+]1c7c54)C(=O)NC6=O)[S+]1CC[S+]2CC[S+]3CC1 (stereo not shown)	TEC	enzyme activity		100 nM, human enzyme, with: 10 µM ATP	reference: untreated	remaining activity	102%
C=CC(=O)Nc1cc(-c2nn(C3CCN(CCNC(=O)[C@H](C)CCC45CC6CC(CC(C6)C4)C5)CC3)c3ncnc(N)c23)ccc1Oc1ccccc1	TEC	inhibitor, KiNativ profiling	biochemical	2 µM		inhibition	59.2%
CC(C)=CC1OC(C)(C)C2C=C3C(=O)C(Cl)=CC(O)C3C3C(O)C4OC4C(=O)C132 (stereo not shown)	TEC	cell-free assay, competition with immobilised ligand		10 µM		remaining binding	90%
NC(=O)[C@@H](O)C[C@H]1CCc2sc3ncnc(O[C@H]4CC[C@H](N5CCOCC5)CC4)c3c21	TEC	enzyme activity, inhibitor		10 µM		inhibition	13%
COc1cc(Nc2nc(C)cc(-c3cnn4nc(OC)ccc34)n2)cc(C(F)(F)F)c1	TEC	binding, competition with immobilised ligand		1 µM		remaining binding	78%
COCC12C(=O)NC3C4(C(OC)CC1O)C1CC5(O)C(OC)C(O)C(OC(C)=O)(C1C5OC(=O)c1ccccc1)C3(O)C(OC)C24 (stereo not shown)	TEC	kinase activity, inhibitor, ProQinase kinase profiling		25 µM	reference: control	remaining activity	81% and 96%
Cc1cnc2nc1Nc1cccc(c1)COC/C=C/COCc1cc(ccc1OCCN1CCOCC1)N2	TEC	binding, competition with immobilised ligand		0.1 µM		remaining binding	79%
COc1c(Cl)cccc1Nc1c(-c2ccncc2C#C[C@@]2(C)CCCN2C(=O)/C=C/CN(C)C)[nH]c2c1C(=O)NCC2	TEC	binding, competition with immobilised ligand		3 µM		remaining binding	92%
C=CC(=O)N1CCc2ccc(-n3c(=O)ccc4cnc5ccc(-c6cnn(C)c6)cc5c43)cc21	TEC	KINOMEscan		1 µM	reference: DMSO control	remaining binding	53%
C=CC(=O)Nc1cccc(-c2cnc3[nH]cc(C(=O)NC(C)(C)C)c3n2)c1	TEC	enzyme activity, inhibitor		0.1 µM		inhibition	58%
COc1ccc(NC(=O)Nc2ccc3c(c2)C(=O)N(C(C)CO)CC(C)C(CN(C)Cc2ccc4c(c2)OCO4)O3)cc1 (stereo not shown)	TEC			0.03 µM	reference: control	remaining activity	98%
CNC(=O)C[C@H](Cc1ccc(C#N)cc1)NC(=O)c1cc(-c2ccc(CN[C@H](C)c3ccc(C)cc3)o2)ccc1Cl	Tyrosine-protein kinase Tec, phosphorylated (TEC, Homo sapiens, UniProt P42680)	enzyme activity, inhibitor		1 µM		activity vs control	99%
Cc1cccc(O[C@H]2CCC[C@@H](C(C)CNCc3ccncc3)C2)c1 (relative stereo)	TEC	enzyme activity, inhibitor		10 µM		inhibition	-7%
Cc1ccc(C(=O)Nc2ccc(CN3CCN(C)CC3)c(C(F)(F)F)c2)cc1C#Cc1cnc2cccnn12	TEC	target engagement, NanoBRET	human cells			upper asymptote	18
CCN1CCN(Cc2ccc(NC(=O)c3ccc(C)c(NC(=O)c4cncc(-c5cccs5)c4)c3)cc2C(F)(F)F)CC1	TEC	binding, competition with immobilised ligand		1 µM		remaining binding	4.8%
